# Published values pooled from the literature.
# Lines come from different studies, so protocols differ. Numbers after ± are the reported error.
SMILES,assay,test system,conditions,how to read,measurement,value
CC(=O)N[C@H](CC(=O)O)C(=O)N[C@H](Cc1c[nH]c2ccccc12)C(=O)N[C@H](Cc1ccccc1)C(=O)N[C@H](CCCCN)C(=O)N[C@H](C)C(=O)N[C@H](Cc1ccccc1)C(=O)N[C@H](Cc1ccc(O)cc1)C(=O)N[C@H](CC(=O)O)C(=O)N[C@H](CCCCN)C(=O)N[C@@H](C(=O)N[C@H](C)C(=O)N[C@H](CCC(=O)O)C(=O)N[C@H](CCCCN)C(=O)N[C@H](Cc1ccccc1)C(=O)N[C@H](CCCCN)C(=O)N[C@H](CCC(=O)O)C(=O)N[C@H](C)C(=O)N[C@H](Cc1ccccc1)C(N)=O)C(C)C,,"statin-treated high-risk CHD women, plasma","oral, 500 mg daily, day 1, 0 to 2 h, mean, outlier excluded",,AUC(0-t),108 ng·h/mL
CC(C)C[C@@H](NC(=O)[C@H](NC(=O)[C@H]1CCCN1)[C@H](C)O)C(=O)N[C@H](Cc1c[nH]cn1)C(=O)N[C@@H](C(=O)N[C@H](Cc1c[nH]cn1)C(=O)N[C@H](CC(N)=O)C(=O)N[C@H](CCCNC(=N)N)C(=O)N[C@H](CCCNC(=N)N)C(=O)N[C@H](CCCNC(=N)N)C(=O)N[C@H](CCCNC(=N)N)C(=O)N[C@H](CCCNC(=N)N)C(N)=O)[C@H](C)O,,"Beagle dog, plasma","oral, 20 mg/kg",,AUC share of terminal phase,78%
Cc1cccc(O[C@H]2CCC[C@@H](C(C)CNCc3ccncc3)C2)c1 (relative stereo),,"C57BL/6 female mice, plasma","intravenous, 3 mg/kg",,AUC(0-inf),701 ng·h/mL
COCCOCCOCCOCCOCCOCCOCCOCCC(=O)NCCCc1cc2cc3nc(cc4[nH]c(cc5nc(c(OC)c1[nH]2)C(=O)C5(C)C)cc4CCc1ccc(C(=O)O)cc1)CC3(C)C,,water with 5% DMF,room temperature,,singlet excited-state lifetime,2.76 ns
CSCC(NC(=O)c1cc(Cl)ccc1Cl)C(=O)NC(CC(C)C)B(O)O (centres unmarked),,Sprague-Dawley rat,"oral, 0.6 mg/kg",,detection in brain,not detected
N=C(N)NCCC[C@@H]1NC(=O)[C@H](Cc2c[nH]c3ccccc23)NC(=O)[C@@H](CC2CCCCC2)NC(=O)[C@@H]2CCCN2C(=O)[C@@H](NC(=O)CCc2ccccc2)CCCNC1=O,,"C57BL/6J mice, plasma","intraperitoneal, 1 mg/kg, two-compartment model",,absorption rate constant,4.3 h⁻¹
NC[C@@H](C(=O)Nc1ccc(-c2cn[nH]c2)cc1)c1ccccc1,OECD 405 eye irritation,"New Zealand White rabbit, eye","topical, 0.1%, 24 h (day 2), scale 0 to 4",direction not given,chemosis score,0
NC12CNCCNCC(NCc3ccc(CNC(=O)CCCC(=O)NCc4ccc(-c5nncnn5)cc4)cc3)(CNCCNC1)CNCCNC2.[64Cu+2],OLINDA dosimetry,uterus,"48 h pretargeting interval, added: huA33-TCO pretargeting",,mean absorbed dose,0.0382 rad/mCi
COc1cc(NC(C)=O)c2c(c1O)-c1c(OC)c(OC)cc3c1C(C2)N(C)CC3 (centres unmarked),,rat lung homogenate,"100 µg/mL, 4 h, room temperature, short-term storage",,remaining compound,94.6 ± 3.9%
O=C1C2=C(CCN(Cc3ccccc3)C2)N2CCN=C2N1Cc1ccc(C(F)(F)F)cc1,microsomal stability,human liver microsomes,,,hepatic clearance,19.7 mL/min/kg
O=S1(=O)CC2CCCCC2CS1 (centres unmarked),phase solubility,water,"25.0 °C, added: β-cyclodextrin",,association constant,4090 M⁻¹
C#CCN(CCCNC(=O)CCCCC[N+]1=C(/C=C/C2=C(Cl)C(=C/C=C3\N(CCCCCC(=O)[O-])c4ccccc4C3(C)C)/CCC2)C(C)(C)c2ccccc21)CCCOc1ccc(Cl)cc1Cl,,mouse plasma,"0.01 µg/mL nominal, 4 h, on ice",,concentration,9.9 ± 0.5 ng/mL
O=C(NCCCN(CCCCN(CCCNC(=O)c1cccc(=O)n1[O-])C(=O)c1cccc(=O)n1[O-])C(=O)c1cccc(=O)n1[O-])c1cccc(=O)n1[O-].[89Zr+4],,"mouse, bone",24 h,,tracer uptake,0.17 %ID/g
C=C(c1ncc(C(=O)O)cn1)c1cc2c(cc1C)C(C)(C)CCC2(C)C,,"Sprague-Dawley rat, male","oral, 100 mg/kg, 6 h, sesame oil vehicle",,blood triglycerides,217 ± 60.1 mg/dL
CC(C)[C@H](NC(=O)[C@@H]1CCCN1C(=O)[C@H](CCCNC(=N)N)NC(=O)[C@H](CS)NC(=O)[C@H](Cc1c[nH]c2ccccc12)NC(=O)[C@H](CCCNC(=N)N)NC(=O)[C@@H](Cc1ccccc1)NC(=O)[C@H](Cc1c[nH]cn1)NC(=O)[C@H](CCC(=O)O)NC(=O)[C@H](CS)NC(=O)[C@H](CS)NC(=O)[C@@H]1CC(=O)N[C@@H](CCCNC(=N)N)C(=O)NCC(=O)N[C@@H](CC(=O)O)C(=O)N[C@H](Cc2ccc(O)cc2)C(=O)N1)C(N)=O [technetium-99m labelled],,"C57 mouse, female, B16/F1 melanoma, liver","intravenous, 0.037 MBq, 0.5 h",,tissue uptake,2.73 ± 0.75 %ID/g
O=C([O-])CN1CCN(CC(=O)[O-])CCN(CC(=O)NCC2CCC(C(=O)NC(Cc3ccc4ccccc4c3)C(=O)NCCCCC(NC(=O)NC(CCC(=O)O)C(=O)O)C(=O)O)CC2)CCN(CC(=O)[O-])CC1.[44Sc+3] (centres unmarked),transmetallation stability,,"2 h, 37 °C, added: Ca2+ 10 mM",,intact complex,97 ± 0.1%
CCOc1ccc(Cc2cc(C3OC(SC)C(O)C(O)C3OC3OC(C(=O)O)C(O)C(O)C3O)ccc2Cl)cc1 (centres unmarked),,"human, plasma","oral, 400 mg once daily, sotagliflozin, day 8",reference: 200 mg dose,AUC(tau) dose ratio,~1.85 fold
OCc1cn(Cc2ccc(-c3noc(-c4ccc(OCC[18F])c(C(F)(F)F)c4)n3)cc2)nn1,,"Lewis rats, female, cerebellum","intravenous, 5 min",,brain uptake,0.53 %ID/g
CC(C)(O)c1ncc([S@](N)(=O)=NC(=O)Nc2c3c(cc4c2CCC4)CCC3)s1,,healthy human,"oral, 10 mg once daily, day 1, capsule formulation, geometric mean",,Cmax,992 ng/mL
COc1cc2c(cc1OC)CN(CCCCn1ccc3cc(OCC[18F])ccc31)C2,,"male CD-1 mouse, spleen","intravenous, 2 h",,tracer uptake,4.31 %ID/g
C[Si](C)(C)C[C@H](CN)CC(=O)O,,"Sprague-Dawley rat, male, brain","oral, 100 mg/kg, estimated as Cmax x Kp",,brain Cmax,25 µM
COc1ccc(C=NCCCN(C)CCN(C)CCCN=Cc2ccc(OC)cc2[O-])c([O-])c1.[67Ga+3],,rat,"intravenous, 1 min",reference: heart over liver,tissue uptake ratio,1 ± 0.2
CCCC[C@H](NC(=O)CNC(=O)CNC(=O)CN1CCN(CC(=O)O)CCN(CC(=O)O)CCN(CC(=O)O)CC1)C(=O)N[C@H]1CC(=O)NCCCC[C@@H](C(N)=O)NC(=O)[C@H](Cc2c[nH]c3ccccc23)NC(=O)[C@H](CCCNC(=N)N)NC(=O)[C@@H](Cc2ccccc2)NC(=O)[C@H](Cc2c[nH]cn2)NC1=O [gallium-67 labelled],,"C57 mice, B16/F1 melanoma",0.5 h,,tumour to skin uptake ratio,5.08
Cn1c(=O)oc2ccc(-c3ccc(CC(C#N)NC(=O)C4CNCCCO4)c(F)c3)cc21 (centres unmarked),refers to: total protein decreased,human,"15 mg single dose, fasted",,subjects with TEAE,0%
CCCC[C@H](NC(C)=O)C(=O)N[C@H]1CC(=O)NCCCC[C@@H](C(=O)N[C@@H](C(=O)N2CCC[C@@H]2C(N)=O)C(C)C)NC(=O)[C@H](Cc2c[nH]c3ccccc23)NC(=O)[C@H](CCCN=C(N)N)NC(=O)[C@@H](Cc2ccc3ccccc3c2)NC(=O)[C@@H]2CCCN2C1=O,,"Beagle dog, both sexes, plasma","subcutaneous, once daily, 2.25 mg/kg, day 1",,AUC,30500 ± 2700 ng·h/mL
COc1ccc(/N=N/c2ccc(OC[C@@H](O)CNC(C)C)cc2)cc1,UV/Vis spectroscopy,Epac buffer with 0.5 % DMSO,50 µM,,"n-pi* absorption maximum, cis",440 nm
CCc1c2c(nc3ccc(O)cc13)-c1cc3c(c(=O)n1C2)COC(=O)[C@]3(O)CC,,"human patients, plasma","intravenous, 56 mg/m^2 of parent drug",,AUC(0-inf),1080 ng·h/mL
C=CC(=O)Nc1cc(Nc2nccc(-c3cn(C4CC4)c4ccccc34)n2)c(OC)cc1NC,radio-HPLC,"human male, feces","oral, 110 mg, 96 to 240 h, sample holds 16.61% dose",reference: dose,excreted amount,0.22%
Oc1ccc2ccccc2c1/N=N/c1ccc(/N=N/c2ccccc2)cc1,,rat whole blood QC samples,"16.0 µg/L, 12 h, room temperature, short-term stability",,measured concentration,16.1 µg/L

# A few entries again:
SMILES,assay,test system,conditions,how to read,measurement,value
CCCC[C@H](NC(C)=O)C(=O)N[C@H]1CC(=O)NCCCC[C@@H](C(=O)N[C@@H](C(=O)N2CCC[C@@H]2C(N)=O)C(C)C)NC(=O)[C@H](Cc2c[nH]c3ccccc23)NC(=O)[C@H](CCCN=C(N)N)NC(=O)[C@@H](Cc2ccc3ccccc3c2)NC(=O)[C@@H]2CCCN2C1=O,,"Beagle dog, both sexes, plasma","subcutaneous, once daily, 2.25 mg/kg, day 1",,AUC,30500 ± 2700 ng·h/mL
CCc1c2c(nc3ccc(O)cc13)-c1cc3c(c(=O)n1C2)COC(=O)[C@]3(O)CC,,"human patients, plasma","intravenous, 56 mg/m^2 of parent drug",,AUC(0-inf),1080 ng·h/mL
CC(C)C[C@@H](NC(=O)[C@H](NC(=O)[C@H]1CCCN1)[C@H](C)O)C(=O)N[C@H](Cc1c[nH]cn1)C(=O)N[C@@H](C(=O)N[C@H](Cc1c[nH]cn1)C(=O)N[C@H](CC(N)=O)C(=O)N[C@H](CCCNC(=N)N)C(=O)N[C@H](CCCNC(=N)N)C(=O)N[C@H](CCCNC(=N)N)C(=O)N[C@H](CCCNC(=N)N)C(=O)N[C@H](CCCNC(=N)N)C(N)=O)[C@H](C)O,,"Beagle dog, plasma","oral, 20 mg/kg",,AUC share of terminal phase,78%
